Published values collected from several papers.
Each numbered part is a random draw from the data of one study; scales do not carry over between parts.

Series 1 — technique: RNA Bind-n-Seq; molecule type: RNA; medium: in vitro; tested at: not given; baseline: input RNA pool; reading: higher = stronger binding
Target: RING finger protein unkempt homolog, zinc fingers 1-6, GST-SBP tag (UNK, Homo sapiens, UniProt Q9C0B0, residues 30-357)
UniProt Q9C0B0, sequence (30-357, looked up): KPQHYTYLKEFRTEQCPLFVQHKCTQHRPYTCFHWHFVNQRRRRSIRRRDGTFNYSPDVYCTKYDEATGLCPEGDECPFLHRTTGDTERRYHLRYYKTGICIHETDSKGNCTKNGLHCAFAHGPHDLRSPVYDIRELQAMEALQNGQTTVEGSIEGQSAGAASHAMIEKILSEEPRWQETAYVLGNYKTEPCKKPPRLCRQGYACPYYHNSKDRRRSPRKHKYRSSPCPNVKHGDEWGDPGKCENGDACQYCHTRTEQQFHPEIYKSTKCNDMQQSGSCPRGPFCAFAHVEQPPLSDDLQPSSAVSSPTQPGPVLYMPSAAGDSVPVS
Notes: RNA with constant flanks, human and mouse sites, ends assumed
With `GGGAGUUCUACAGUCCGACGAUCAUGAGAAACAGUAUCUUAGCCCAAGUUCUGGAUCAGUCGGCCCGGGCCAGGUUAAGUAACUUAGCACUUGUAAAGCCUGAAAAAACUAAAGCAGUAGAGAAUUACCUUAUACAGAUGGCACAACAGAGGAUUGAGCAUCA` the bound/input enrichment was 1.19 ratio.
`GGGAGUUCUACAGUCCGACGAUCCUAGCUAGGGACCUAUUUUGUUUGGUUUUCAAAGAAUCAGUUUUUUGUCUUUGUGGAUUUUUCUCAGUUGUUGAUCUCAUUGGCAUUUGAAUUGUAUUUCCUCUCCUACAUGCCUUGUGUCAACAGAGGAUUGAGCAUCA` gave a bound/input enrichment of 1.75 ratio.
The bound/input enrichment of `GGGAGUUCUACAGUCCGACGAUCGUGGCAUCAACAUCAAUGAACAGAGAAUCGUCUAGGUCUCAUGCCGUCUUUACAAUUACAAUAGAGUCAAUGGAGAAAAGUAAUGAGAUUGUGAAUAUACGGACCUCCCUACUCAACCUGCAACAGAGGAUUGAGCAUCA` is reported as 0.17 ratio.
The bound/input enrichment of `GGGAGUUCUACAGUCCGACGAUCAAAGAACUACUGAGGCAAGGCAGCAAAUUUAGGAGAGACAUUUCAACAAUAUUGAUAGAGUUAGGAUUCCAAAUUAAAAAGAAAACUAAGACAUUAUACAUCAACAAAGCCAAUGUGUGGCAACAGAGGAUUGAGCAUCA` is reported as 9.12 ratio.

Series 2 — technique: competition protein-binding microarray; molecule type: double-stranded DNA, one strand shown; medium: in vitro; tested at: 2 µM; added: Pho4 competitor, 0.05 µM; reading: higher = stronger binding
Target: Centromere-binding protein 1, full length, His-tagged (CBF1, Saccharomyces cerevisiae, UniProt P17106, residues 1-351)
UniProt P17106, sequence (whole entry, looked up): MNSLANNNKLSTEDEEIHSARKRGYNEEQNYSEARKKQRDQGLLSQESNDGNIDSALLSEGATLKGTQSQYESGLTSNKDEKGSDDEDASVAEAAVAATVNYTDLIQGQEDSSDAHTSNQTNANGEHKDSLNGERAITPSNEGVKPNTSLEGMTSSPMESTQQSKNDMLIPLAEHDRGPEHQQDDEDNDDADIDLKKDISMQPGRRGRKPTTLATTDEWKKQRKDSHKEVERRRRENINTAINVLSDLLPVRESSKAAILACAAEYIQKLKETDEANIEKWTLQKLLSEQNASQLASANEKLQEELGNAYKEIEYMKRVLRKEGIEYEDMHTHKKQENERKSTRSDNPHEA
Notes: whole 60-bp probe, lowest competitor level
`GTCTTGTCTCATTGGATAGTGGGTGTCCCCACTTCAGTCTTGATTCGCTTGACGCTGCTG` has a fluorescence intensity of 79 a.u.
The fluorescence intensity of `CGTCCTAGTGATTGGGAAGTGGGTGCCATGAGGAAGGTCTTGATTCGCTTGACGCTGCTG` is reported as 71.5 a.u.
The fluorescence intensity of `CTTCAGTTTTTTCACCACGTGAAGAGAATATGGATAGTCTTGATTCGCTTGACGCTGCTG` is reported as 2270 a.u.
`GTCTTGTCTCATTGTATCGTGGGTGTCCCCACTTCAGTCTTGATTCGCTTGACGCTGCTG` has a fluorescence intensity of 79.7 a.u.

Series 3 — technique: protein binding microarray; molecule type: double-stranded DNA, one strand shown; medium: in vitro; tested at: not given; baseline: not given; reading: higher = stronger binding
Target: Histone acetyltransferase KAT6A, winged helix 1, GST fusion (KAT6A, Homo sapiens, UniProt Q92794, residues 1-85)
Notes: 8-mer, flanks averaged, mean of 2 arrays, mostly near background
Residues (chain): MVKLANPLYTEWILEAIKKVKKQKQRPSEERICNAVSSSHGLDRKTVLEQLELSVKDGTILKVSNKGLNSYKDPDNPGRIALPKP
For `CAGGTCGA`, the E-score was -0.224.
`GTCCATCA` gave an E-score of -0.125.
`ATACCGTG` gave an E-score of 0.21.
For `CATTTTGC`, the E-score was -0.0832.
`AGGGTGGG` has an E-score of -0.202.

Single results of other studies
For `PhoQ, residues 284 288 289 292 302 303 ASTSDA`, the fold induction was 13.9 (PhoP, residues 12 14 15 18 19 IQSYL (Escherichia coli, UniProt P23836); Sort-seq, item: YFP reporter; E. coli; PhoQ-PhoP variant library, added: 10 µM Mg2+; baseline: high Mg2+ state, higher = stronger signaling).

For quick reference, copied from above (series 3):
`ATACCGTG` gave an E-score of 0.21.
